Measured values collected from several papers.
Each numbered part is a random draw from the data of one study; scales do not carry over between parts. Changes are numbered by the printed parent chain.

Series 1
Target: Interferon regulatory factor 5, full length, phosphomimetic (IRF5, Homo sapiens, UniProt Q13568-2, residues 1-514, S451D/S453D/S456D/S462D)
Method: protein-binding microarray
Form: double-stranded DNA, one strand shown
Medium: in vitro
Tested at: 940 nM top
Setting: 60-bp whole probe
Together with: salmon DNA 0.4 mg/ml
Baseline: random background probes
Direction: higher = stronger binding
Endpoint: fitted relative affinity
Constant ends, left off below: GCCTAGCAC … GTCTTGATTCGCTTGACGCTGCTG
TTAGGACTGGGGTTTCGTTTAGTGCTA: 3.11 z-score
ACCCGTACTGGGTCTGGATCGTGCTAG: -0.331 z-score
AGAGCCATCAATATCTGCAAGTGCTAG: -0.306 z-score
GTAGGCTTCTATGTAGTTGAGTGCTAG: -0.475 z-score
GACAGTTTCCTTATCCTGACGTGCTAG: 2.7 z-score
TTAGAACTGAGTATCGATGAGTGCTAG: 3.19 z-score
ATAGGTATCCTTCTCCTTTAGTGCTAG: 0.637 z-score
ATATATTTATGTATACACACGTGCTAG: 0.218 z-score
GACGGTATCCTTATCCTGACGTGCTAG: 0.258 z-score
GACGATCTCATTCTCGAGACGTGCTAG: 1.31 z-score
GACGATATCAATATCGAGACGTGCTAG: 0.0822 z-score
GACGGACTGGACTATCGTGACGTGCTA: -0.749 z-score
TAAGATTTCGGGTTTCGATTAGTGCTA: 5.78 z-score
GACGGACTGGGGTTTCGGCACGTGCTA: 2.29 z-score
GACGTTCTCAGTTTCGAGACGTGCTAG: 4.64 z-score
GACGGACGGGGTTTCGGGACGTGCTAG: 2.77 z-score
GACAATTCCAGTTTCGAGACGTGCTAG: 4.67 z-score
GACGATTTCAGTCTCTAGACGTGCTAG: 0.557 z-score
TTCTATGACTACATTGCAGCGTGCTAG: -0.0826 z-score

Series 2
Target: human cyclin A2
Observed: peptide binding
Method: competitive growth sequencing
Form: peptide
Organism: Saccharomyces cerevisiae
Strain: cyclin A2-Cln2 fusion strain
Tested at: concentration not given
Setting: peptide tiling library
Baseline: unfused Cln2 strain
Direction: direction not given
Endpoint: binding score
NNIRKALSFDNRGEEH: 1.19
NFETPEAETPIRSPFK: -0.136
RRRIKLPESDSSED: 0.136
PFSENVSAVQKLDFSD: 1.01
SHTLKGARAVFDNQLT: -0.219
FQDSGYNELKSCSFDN: 0.305
TTTTSPRTPPPLTVQD: -0.672
KRRLDLETDHQY: 2.68
EMARYKRKLLINDFGR: -0.873
KPCHRRVLCFDSTTAP: 0.195
VRDLSYRLVFLACCVA: 0.184
VLVRTSACRSLFGPVD: 1.17
GAEELEDLVHFSVSEL: 0.766
PQWPCGKHKRVLIFAS: 0.55
TRRRLFVENDSP: 2.69
KVKRRLDLDIDGLQKE: 1.79
RNRGPKLNAMLRLGVL: 0.571
LKGRRLVFDN: 1.58
NEGVSNAVRRSLYIRD: 0.406
SMTDFYHSKRRLIFSK: 1.07
GRLPAKAKADLEGIGR: -0.518
ASTTRARAFVENDSPS: 0.25
AEHPKPSACRNLFGPV: 3.01

Series 3
Target: Phosphate system positive regulatory protein PHO4, full length, GST-tagged (PHO4, Saccharomyces cerevisiae, UniProt P07270, residues 1-312)
Method: competition protein-binding microarray
Form: double-stranded DNA, one strand shown
Medium: in vitro
Tested at: 2 µM
Setting: whole 60-bp probe, lowest competitor level
Together with: Cbf1 competitor, 0.05 µM
Direction: higher = stronger binding
Endpoint: fluorescence intensity
Constant ends, left off below: … GTCTTGATTCGCTTGACGCTGCTG
Construct (chain): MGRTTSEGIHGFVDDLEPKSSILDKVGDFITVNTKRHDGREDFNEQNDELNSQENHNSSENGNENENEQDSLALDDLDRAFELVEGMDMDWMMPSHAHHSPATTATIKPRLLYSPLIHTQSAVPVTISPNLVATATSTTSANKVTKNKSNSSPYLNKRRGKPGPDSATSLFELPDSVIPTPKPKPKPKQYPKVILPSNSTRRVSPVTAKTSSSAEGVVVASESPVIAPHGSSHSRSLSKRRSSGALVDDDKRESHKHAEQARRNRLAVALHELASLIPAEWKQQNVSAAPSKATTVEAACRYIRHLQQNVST
CAAAGAACATCAAGGCTCGTGTTGGTTCTCTACCAG: 9350 a.u.
CAAAATCTTACCAGAAACGTGCTTTCTTCTGGCTTC: 13700 a.u.
CGTCCTAGAGATTAGCACGTGTTTTCCATGAGGAAG: 17900 a.u.
TCGAGCCAGATCCCGCTCGTGGGACTGTTCATTCTG: 8710 a.u.
TGCGCAACAACTTGTCACTCGACTTTATGTCTAGAA: 3200 a.u.
AAATTACTAAGTTGCAGGGTGGGTGACGCCGTATGA: 4730 a.u.
TGTGTTAGAATACACAGCGTGCCGAGTTCCTGGTGC: 8440 a.u.
GTCTTGTCTCATTGGGATGTGGGTGTCCCCACTTCA: 5240 a.u.
TCAAGATTGGTGGCGCTCGTGAAATAATGCCATTGC: 4770 a.u.
CCCATTCAATTCGCTCTCGTGACGGAATCGTCGGGA: 6820 a.u.
GGGCCCGCCCTGGGCCACGTGTTGCCTGCGGACCCG: 16800 a.u.
CGAGAAGCTTTCGGCCACGTGGGTATCTGGATTCAA: 17200 a.u.
TGATCCGTTCGCAATCACGTTGTTACTATTCGAGGA: 12000 a.u.
CTGAAACAAAACGGCCACGTGCTGTTTCAGCCTTGA: 15700 a.u.
GTCTTGTCTCATTTTCACGTGGGATTCCCCACTTCA: 12000 a.u.
TGCACGGAGTCTTAAAACACTCCGATTTGGATACCT: 5140 a.u.
CTAACGAAGGTTTGTGTGGTGGGTGACAAGCCAAGT: 4540 a.u.
ATATTATTGATTTTGCACGTGACGAAATGAAAAACA: 16500 a.u.
TTGCAAAAAAAGAATGGCGTGGGTAGGGGCGATTAT: 7010 a.u.
CTTCTGTAAATTTGTCACGTGTTTTGACGCGCCCCG: 13800 a.u.
GTCTTGTCTCATTTTCACGTGAATTTCCCCACTTCA: 8620 a.u.
AAAGCGGTAATTTGGTCGGTGGGTGCAGATATCTAT: 4200 a.u.
GCAATCGATAACAGGGACGTGCGATGCTAATGTAAT: 7730 a.u.
AAATTACTAAGTTGAATCGTGGGTGACGCCGTATGA: 7120 a.u.
AAATTACTAAGTTGCGCAGTGGGTGACGCCGTATGA: 4110 a.u.

Series 4
Target: Ras GTPase-activating protein-binding protein 1, full length (G3BP1, Homo sapiens, UniProt Q13283)
UniProt Q13283, sequence (whole entry, looked up): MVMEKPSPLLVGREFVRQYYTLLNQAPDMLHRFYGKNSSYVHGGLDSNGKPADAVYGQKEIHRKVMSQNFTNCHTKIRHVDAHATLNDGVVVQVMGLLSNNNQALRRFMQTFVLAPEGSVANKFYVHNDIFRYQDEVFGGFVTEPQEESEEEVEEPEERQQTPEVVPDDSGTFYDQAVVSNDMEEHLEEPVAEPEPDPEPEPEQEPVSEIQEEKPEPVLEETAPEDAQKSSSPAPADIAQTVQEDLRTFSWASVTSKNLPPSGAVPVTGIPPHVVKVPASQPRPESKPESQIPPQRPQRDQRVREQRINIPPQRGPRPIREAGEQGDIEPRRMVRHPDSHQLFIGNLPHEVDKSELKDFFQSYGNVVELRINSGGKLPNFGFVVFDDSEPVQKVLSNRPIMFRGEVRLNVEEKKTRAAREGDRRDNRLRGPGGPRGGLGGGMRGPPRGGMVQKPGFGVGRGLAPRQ
Method: RNA Bind-n-Seq
Form: RNA
Medium: in vitro
Tested at: 200 nM
Setting: whole 134-nt RNA, ends assumed
Together with: 150 mM KCl
Baseline: input library
Direction: higher = stronger binding
Endpoint: log2 enrichment
Constant ends, left off below: GGGAGUUCUACAGUCCGACGAUC … UGGAAUUCUCGGGUGUCAAGG
CAAGUCCUGUGCUACACAUCGUAUGUACCGAAUCGGGGUUUGGGUUUGGUUUGGGAAAGUAUUAUGUUACGCCGUUCGGAUCUGCACUUC: -0.0861
UUUGGAGAAGGAACCCCACUCUCCAGCUGACCAGCCUGAACAACAGGCAGAAUCCACUUUGACAUCAGCUGAGACUAGGGGAAGCAAGAA: -0.663
CUCAAGUCCUGUGCUACACAUCGUAUGUACCGAAUCGGGUGGGAGGGAAAGGGAAAGUAUUAUGUUACGCCGUUCGGAUCUGCACUUCCA: 1.23
AGUCCUGUGCUACACAUCGUAUGUACCGAAUCGGUUUUUGGAAAAAAAGGAAAAAGGAAAGUAUUAUGUUACGCCGUUCGGAUCUGCACU: -1.31
AAGUCCUGUGCUACACAUCGUAUGUACCGAAUCGGGUUUUUGGGUUUGGGUUUGGGAAAGUAUUAUGUUACGCCGUUCGGAUCUGCACUU: 0.0642
CUCAAGUCCUGUGCUACACAUCGUAUGUACCGAAUCGGAAGGGGAAGGAAGGGGAAAGUAUUAUGUUACGCCGUUCGGAUCUGCACUUCC: 0.887
UAACUUUAGAGGAGGAUCGGAUGGAUAUGGCAGUGGACGUGGAUUUGGGGAUGGCUAUAAUGGGUAUGGAGGAGGACCUGGAGGUGGCAA: 0.429
UGUCAGUAUCAUACAUAACAGAGGAAUGCCUGAAGAAGCUGGACACAAAGCAGCAGACCAACACCCUGCUCAACCUGGUGUGGAGGGACU: -0.499
UGGCCCUGGUGGCAUGCGGGGAGGAAGAGGUCGCCUCAUGGAUCGUGGUGGUCCCGGUGGAAUGUUCAGAGGUGGCCGUGGUGGAGACAG: -0.0612
UAACUUUCGAGGAGGAUCUGAUGGAUAUGGCAGUGGACGUGGAUUUGGGGAUGGCUAUAAUGGGUAUGGAGGAGGACCUGGAGGUGGCAA: 0.509
GUCCUGUGCUACACAUCGUAUGUACCGAAUCGGGGAAAGGGGUUUUUGGGGAAAGGGGAAAGUAUUAUGUUACGCCGUUCGGAUCUGCAC: 0.644
CUCAAGUCCUGUGCUACACAUCGUAUGUACCGAAUCGGAGGAGGAAAAAAAGGAAAGUAUUAUGUUACGCCGUUCGGAUCUGCACUUCCA: -0.365
GCAGGAAGUAAAAACAAAUGGAAAUGCUUCGUAUAGUGGCAGGGGUGGGGGUUGCUAAGGAAAGGGUGGGAUGGGAGUGGGUAAAGAGUU: 0.91
UAACUUUAGAGGAGGAUCUGAUGGAUAUGGCAGUGGACGUGGAUUUGGGGAUGGCUAUAAUGGGUAUGGAGAAGGACCUGGAGGUGGCAA: 0.305

Series 5
Target: ABI1, truncated, D143A, DHFR fusion (Arabidopsis thaliana)
Method: DHFR PCA, deep sequencing
Medium: yeast
Setting: methotrexate growth selection, single substitutions
Together with: (+)-ABA 0.0091 µM
Baseline: wild-type fitted maximum
Direction: higher = stronger binding
Endpoint: relative binding score
Starting sequence: PYL1, truncated, DHFR fusion (Arabidopsis thaliana); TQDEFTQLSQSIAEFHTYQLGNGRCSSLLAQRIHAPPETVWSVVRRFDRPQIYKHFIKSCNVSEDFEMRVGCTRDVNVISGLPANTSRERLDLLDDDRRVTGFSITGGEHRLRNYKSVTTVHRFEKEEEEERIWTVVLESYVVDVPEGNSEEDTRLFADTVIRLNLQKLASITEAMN
Q167N: 5.09%
P37Q: 10.3%
P36Y: -0.882%
H55L: 16.6%
L166I: 6.37%
F124R: 1.54%
Q2E: 35.2%
G71K: -4.6%
A170H: -1.89%
I33Q: 1.05%
D75Y: 25.5%
T106M: 42%
G23E: 0.608%
T1L: 30.3%
I52K: 1%
S26H: 9.03%
P50K: -3.84%

Excerpt of the above (series 2):
FQDSGYNELKSCSFDN: 0.305
TTTTSPRTPPPLTVQD: -0.672
KRRLDLETDHQY: 2.68
EMARYKRKLLINDFGR: -0.873
KPCHRRVLCFDSTTAP: 0.195
VRDLSYRLVFLACCVA: 0.184
VLVRTSACRSLFGPVD: 1.17
GAEELEDLVHFSVSEL: 0.766
PQWPCGKHKRVLIFAS: 0.55
TRRRLFVENDSP: 2.69
KVKRRLDLDIDGLQKE: 1.79
RNRGPKLNAMLRLGVL: 0.571
LKGRRLVFDN: 1.58
NEGVSNAVRRSLYIRD: 0.406
